Measurements from different studies.
Lines come from different studies, so protocols differ. Values joined by “and” are separate records of one study, mostly repeats; a detail may differ. ± gives the spread as reported.
Aminopeptidase N: Aminopeptidase N (Neisseria meningitidis, UniProt Q9JYV4)
Sequence of UniProt Q86WA6 (whole entry, looked up): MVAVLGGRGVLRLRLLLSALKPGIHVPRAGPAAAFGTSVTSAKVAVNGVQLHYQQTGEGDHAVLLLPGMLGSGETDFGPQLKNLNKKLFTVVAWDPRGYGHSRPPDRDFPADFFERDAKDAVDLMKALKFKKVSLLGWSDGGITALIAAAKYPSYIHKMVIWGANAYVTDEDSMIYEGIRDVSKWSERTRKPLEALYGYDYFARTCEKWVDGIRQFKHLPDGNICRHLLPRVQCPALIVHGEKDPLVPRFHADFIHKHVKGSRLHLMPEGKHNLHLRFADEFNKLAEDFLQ
Sequence of UniProt Q15858 (whole entry, looked up): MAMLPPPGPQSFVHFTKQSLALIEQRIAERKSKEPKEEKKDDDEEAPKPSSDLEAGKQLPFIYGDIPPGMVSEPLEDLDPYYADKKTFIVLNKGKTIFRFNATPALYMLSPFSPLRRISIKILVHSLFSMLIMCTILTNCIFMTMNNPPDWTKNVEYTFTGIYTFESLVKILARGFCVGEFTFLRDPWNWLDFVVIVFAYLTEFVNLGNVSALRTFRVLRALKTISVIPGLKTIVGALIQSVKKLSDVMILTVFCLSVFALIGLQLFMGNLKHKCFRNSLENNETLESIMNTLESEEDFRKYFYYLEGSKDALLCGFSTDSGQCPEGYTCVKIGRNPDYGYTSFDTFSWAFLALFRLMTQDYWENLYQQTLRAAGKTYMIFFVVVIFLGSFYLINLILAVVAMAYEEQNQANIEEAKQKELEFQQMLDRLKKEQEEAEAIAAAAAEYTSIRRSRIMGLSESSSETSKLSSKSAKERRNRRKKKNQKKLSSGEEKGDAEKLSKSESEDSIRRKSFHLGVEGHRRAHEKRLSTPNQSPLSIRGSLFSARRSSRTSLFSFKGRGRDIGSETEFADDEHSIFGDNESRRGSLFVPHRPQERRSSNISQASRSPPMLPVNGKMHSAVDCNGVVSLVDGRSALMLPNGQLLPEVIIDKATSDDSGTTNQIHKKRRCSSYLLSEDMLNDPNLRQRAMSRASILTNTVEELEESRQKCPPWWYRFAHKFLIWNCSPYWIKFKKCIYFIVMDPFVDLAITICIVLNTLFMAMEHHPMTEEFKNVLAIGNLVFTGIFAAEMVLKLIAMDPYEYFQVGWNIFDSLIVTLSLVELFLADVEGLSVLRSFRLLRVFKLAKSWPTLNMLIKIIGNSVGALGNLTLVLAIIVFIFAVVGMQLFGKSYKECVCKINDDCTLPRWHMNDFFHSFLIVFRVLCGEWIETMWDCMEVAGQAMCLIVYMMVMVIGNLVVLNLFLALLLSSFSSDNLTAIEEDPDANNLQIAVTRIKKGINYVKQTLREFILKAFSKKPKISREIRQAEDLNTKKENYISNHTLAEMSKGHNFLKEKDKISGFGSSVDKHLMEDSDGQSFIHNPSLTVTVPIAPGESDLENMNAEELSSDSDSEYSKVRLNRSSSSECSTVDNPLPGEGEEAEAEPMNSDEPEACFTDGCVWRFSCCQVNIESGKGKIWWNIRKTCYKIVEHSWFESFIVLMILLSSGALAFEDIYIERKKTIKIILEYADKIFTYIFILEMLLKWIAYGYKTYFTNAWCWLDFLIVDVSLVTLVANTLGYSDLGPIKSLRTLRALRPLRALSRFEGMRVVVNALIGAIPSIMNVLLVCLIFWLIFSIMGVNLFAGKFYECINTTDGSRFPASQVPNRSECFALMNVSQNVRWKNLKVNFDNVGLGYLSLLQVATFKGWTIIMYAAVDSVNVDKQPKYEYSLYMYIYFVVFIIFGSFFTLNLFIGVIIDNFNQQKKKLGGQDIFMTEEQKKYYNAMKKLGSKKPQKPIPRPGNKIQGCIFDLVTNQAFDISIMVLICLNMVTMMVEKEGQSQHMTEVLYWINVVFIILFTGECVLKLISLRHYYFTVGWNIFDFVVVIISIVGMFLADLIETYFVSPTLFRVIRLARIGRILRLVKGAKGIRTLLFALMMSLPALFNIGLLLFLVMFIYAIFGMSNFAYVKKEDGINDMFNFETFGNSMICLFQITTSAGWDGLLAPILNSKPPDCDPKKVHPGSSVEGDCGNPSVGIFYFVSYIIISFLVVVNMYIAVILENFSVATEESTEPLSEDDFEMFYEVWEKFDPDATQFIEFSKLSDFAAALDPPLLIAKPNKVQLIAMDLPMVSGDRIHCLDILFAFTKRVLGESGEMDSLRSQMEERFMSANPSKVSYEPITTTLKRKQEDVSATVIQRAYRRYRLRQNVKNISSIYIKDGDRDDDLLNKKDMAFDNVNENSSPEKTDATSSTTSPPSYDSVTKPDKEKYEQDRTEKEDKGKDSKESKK
Sequence of UniProt P06276 (whole entry, looked up): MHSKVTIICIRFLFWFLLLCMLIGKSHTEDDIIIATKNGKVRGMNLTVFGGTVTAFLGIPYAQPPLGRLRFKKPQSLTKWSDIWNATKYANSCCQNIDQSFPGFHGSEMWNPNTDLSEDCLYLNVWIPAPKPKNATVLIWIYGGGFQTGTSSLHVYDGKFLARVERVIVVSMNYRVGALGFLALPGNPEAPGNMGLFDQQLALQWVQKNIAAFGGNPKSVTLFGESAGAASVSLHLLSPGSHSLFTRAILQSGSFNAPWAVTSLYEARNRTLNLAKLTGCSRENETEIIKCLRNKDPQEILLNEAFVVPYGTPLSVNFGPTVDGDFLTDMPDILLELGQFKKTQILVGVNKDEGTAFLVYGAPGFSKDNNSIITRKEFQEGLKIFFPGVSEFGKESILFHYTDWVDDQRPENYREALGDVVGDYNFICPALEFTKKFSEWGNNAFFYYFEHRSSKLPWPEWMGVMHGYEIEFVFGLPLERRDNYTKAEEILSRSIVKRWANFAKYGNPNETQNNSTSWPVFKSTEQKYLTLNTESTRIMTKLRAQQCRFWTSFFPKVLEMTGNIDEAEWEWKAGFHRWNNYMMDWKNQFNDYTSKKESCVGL
Sequence of UniProt P00691 (whole entry, unmodified, looked up): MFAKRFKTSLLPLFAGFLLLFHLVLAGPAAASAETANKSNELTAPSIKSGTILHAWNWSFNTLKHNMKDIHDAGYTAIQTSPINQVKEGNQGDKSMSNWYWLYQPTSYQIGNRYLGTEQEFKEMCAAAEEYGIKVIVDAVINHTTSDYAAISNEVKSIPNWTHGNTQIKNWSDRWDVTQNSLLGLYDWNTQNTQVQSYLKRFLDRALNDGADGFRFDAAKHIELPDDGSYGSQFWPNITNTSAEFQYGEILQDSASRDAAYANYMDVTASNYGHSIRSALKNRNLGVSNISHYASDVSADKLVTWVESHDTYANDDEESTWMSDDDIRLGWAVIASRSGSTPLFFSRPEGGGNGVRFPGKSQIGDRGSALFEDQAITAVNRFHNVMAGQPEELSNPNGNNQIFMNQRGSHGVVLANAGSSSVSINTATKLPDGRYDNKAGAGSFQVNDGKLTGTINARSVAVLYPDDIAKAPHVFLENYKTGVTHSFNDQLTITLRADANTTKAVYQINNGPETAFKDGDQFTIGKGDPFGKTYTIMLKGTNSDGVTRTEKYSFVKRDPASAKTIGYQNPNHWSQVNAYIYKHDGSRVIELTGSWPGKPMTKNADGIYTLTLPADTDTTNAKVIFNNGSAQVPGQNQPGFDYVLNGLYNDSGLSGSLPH
Sequence of UniProt P04062 (whole entry, looked up): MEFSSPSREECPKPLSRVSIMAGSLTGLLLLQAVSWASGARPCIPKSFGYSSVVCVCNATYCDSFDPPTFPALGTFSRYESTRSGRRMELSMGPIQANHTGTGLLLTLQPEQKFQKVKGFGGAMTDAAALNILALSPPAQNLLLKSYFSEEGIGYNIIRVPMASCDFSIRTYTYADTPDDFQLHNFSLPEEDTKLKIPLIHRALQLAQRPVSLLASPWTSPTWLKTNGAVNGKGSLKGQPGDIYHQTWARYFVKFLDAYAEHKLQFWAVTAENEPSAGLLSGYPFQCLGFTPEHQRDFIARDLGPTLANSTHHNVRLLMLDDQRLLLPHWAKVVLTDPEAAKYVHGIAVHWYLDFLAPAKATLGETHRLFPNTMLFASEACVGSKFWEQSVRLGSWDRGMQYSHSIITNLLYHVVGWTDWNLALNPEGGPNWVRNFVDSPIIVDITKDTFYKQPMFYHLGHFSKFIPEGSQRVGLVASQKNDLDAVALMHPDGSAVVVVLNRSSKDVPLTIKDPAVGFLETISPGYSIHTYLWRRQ
Sequence of UniProt Q02936 (whole entry, looked up): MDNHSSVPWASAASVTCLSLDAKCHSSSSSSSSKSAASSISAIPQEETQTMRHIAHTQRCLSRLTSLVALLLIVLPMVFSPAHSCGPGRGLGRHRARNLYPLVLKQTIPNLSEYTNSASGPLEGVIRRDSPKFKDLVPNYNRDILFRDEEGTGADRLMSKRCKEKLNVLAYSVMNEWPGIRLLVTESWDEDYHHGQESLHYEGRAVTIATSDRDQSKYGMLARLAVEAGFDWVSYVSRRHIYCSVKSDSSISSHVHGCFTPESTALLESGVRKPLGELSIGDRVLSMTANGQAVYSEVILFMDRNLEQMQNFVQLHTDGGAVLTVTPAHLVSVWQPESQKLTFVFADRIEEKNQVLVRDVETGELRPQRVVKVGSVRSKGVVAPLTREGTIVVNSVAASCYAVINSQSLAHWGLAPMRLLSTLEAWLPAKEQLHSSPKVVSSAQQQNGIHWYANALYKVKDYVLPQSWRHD
Sequence of UniProt Q9H008 (whole entry, looked up): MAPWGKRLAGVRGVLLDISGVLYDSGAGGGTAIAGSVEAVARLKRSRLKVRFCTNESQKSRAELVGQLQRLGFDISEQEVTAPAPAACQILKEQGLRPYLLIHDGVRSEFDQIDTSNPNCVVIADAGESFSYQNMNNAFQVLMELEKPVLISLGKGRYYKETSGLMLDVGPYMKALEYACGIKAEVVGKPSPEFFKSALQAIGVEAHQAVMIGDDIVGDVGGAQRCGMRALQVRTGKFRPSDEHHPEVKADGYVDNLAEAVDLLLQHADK

`O=C(Nc1cccnn1)N1CCC(=Cc2cccc(Oc3ccc(C(F)(F)F)cn3)c2)CC1` gave an ED50 of 4.3 µg/kg (Fatty-acid amide hydrolase 1 (Faah, Mus musculus, UniProt O08914); enzyme activity, inhibitor, ex vivo; mouse, brain; oral, 8 h).
`CCCCc1cc(Cc2ccccc2)cc2c1NCCC2NC(=O)C(N)Cc1c(C)cc(O)cc1C` (centres unmarked) gave a maximal stimulation of 25% (Delta-type opioid receptor (Oprd1, Rattus norvegicus, UniProt P33533); GTPγS binding, agonist; C6 cells expressing DOR; relative to: DPDPE at 10 µM).
Under “ΔG of binding”, `CC(C)P(=[Se])(NP(=[Se])(C(C)C)C(C)C)C(C)C` is recorded as -5.29 kcal/mol (Alpha-amylase (Bacillus subtilis, UniProt P00691); fluorescence quenching; concentration not given, pH 6.8, 310 K).
`Nc1nc2c([C@@H]3O[C@@H]4COP(=O)(O)O[C@H]5[C@@H](O)[C@H](c6snc7c(=O)[nH]c(N)nc67)O[C@@H]5COP(=O)(O)O[C@H]4[C@H]3O)snc2c(=O)[nH]1`: “association rate constant k1” 43000 ± 20000 M⁻¹ s⁻¹ (Cyclic di-GMP phosphodiesterase RocR (rocR, Pseudomonas aeruginosa, UniProt Q9HX69); substrate, HPLC; 10 µM, together with: 100 nM enzyme).
`O=C(O)CCCC(=O)O` gave an inhibition of 60.8% (Cholinesterase (BCHE, Homo sapiens, UniProt P06276); enzyme activity, inhibitor, Ellman; 250 µg/mL).
`COc1cc(COc2ccc3c(c2)CN(C(=O)[C@H](CCC(=O)O)NC(=O)[C@H](CC(=O)O)NC(=O)[C@H](CC(=O)O)NC(=O)[C@H](CCC(=O)O)NC(=O)[C@@H](CCCNC(=N)N)NC(=O)[C@@H](CCCNC(=N)N)NC(=O)[C@@H](CCCNC(=N)N)NC(=O)[C@H](C)N(C)C(=O)[C@H](Cc2ccccc2)NC(=O)[C@@H](NC(=O)[C@H](Cc2ccccc2)NC(=O)[C@H](C)NC(=O)[C@H](CCCNC(=N)N)N(C)C(=O)[C@@H]2CCCN2C(=O)[C@H](CCCNC(=N)N)NC(=O)CNC(=O)c2ccc4c(c2)C2(OC4=O)c4ccc(O)cc4Oc4cc(O)ccc42)[C@@H](C)OCc2cc(OC)c(OC)cc2[N+](=O)[O-])[C@H](C(=O)N[C@@H](CCC(=O)O)C(=O)N[C@@H](CCC(=O)O)C(=O)N[C@H](C(N)=O)C(C)C)C3)c([N+](=O)[O-])cc1OC` has a phosphorylation of 3.3 ± 0.9% (RAC-alpha serine/threonine-protein kinase (AKT1, Homo sapiens, UniProt P31749); reporter phosphorylation, substrate; concentration not given, 60 min, without photoactivation).
The Km of `O=C1SCCC1NC(C(=O)NCc1ccccc1)C1CC1` (centres unmarked) is reported as 51100 ± 19100 µM (Thiosulfate sulfurtransferase (TST, Homo sapiens, UniProt Q16762); activator, measured: sodium thiosulfate; 17.1 µM, together with: KCN 60 mM).
`O=C(O)/C=C/c1ccc(O)cc1` has an inhibition of 65.9 ± 1.4% (Acetylcholinesterase (ACHE, Homo sapiens, UniProt P22303); inhibitor; 250 µg/mL).
The -TΔS of `CCOC(=O)/C(C#N)=C/c1cccc(C(N)=O)c1` is reported as 5 kcal/mol (Genome polyprotein, 3C protease (Human enterovirus D68, UniProt Q68T42, C1641Y/I1565V/I1594T/R1603K/Y1579H); ITC; enterovirus D68; 25 °C, together with: DTT 10 mM).
`C[C@@H](NC(=O)[C@H](Cc1ccccc1)NC(=O)[C@@H](CCCNC(=N)N)NC(=O)[C@H](CCCN)NC(=O)[C@@H]1CNC(=O)c2cc3cc(c2)C(=O)N[C@H](Cc2ccc4ccccc4c2)C(=O)N[C@@H](CO)C(=O)N[C@@H](CC(N)=O)C(=O)N[C@H](Cc2ccc4ccccc4c2)C(=O)N[C@@H](c2ccccc2)C(=O)N[C@@H](CCCCNC3=O)C(=O)N[C@H](Cc2ccccc2)C(=O)N[C@@H](CCC(N)=O)C(=O)N[C@H](CCCNC(=N)N)C(=O)N[C@@H](CCCNC(=N)N)C(=O)N1)C(=O)NCCOCCOCC(=O)NCCOCCOCC(=O)N[C@@H](CCCCNC(=O)c1ccc2c(c1)C(=O)OC21c2ccc(O)cc2Oc2cc(O)ccc21)C(N)=O` — result for binding: “no binding” (purine nucleoside phosphorylase; fluorescence polarization; concentration not given).
`N#Cc1nc(N2CCOCC2)nc(N(Cc2ccc(F)cc2)CC2CCCNC2)n1` (centres unmarked) gave a selectivity ratio of 6.7 and 7 (CPL (Toxoplasma gondii, UniProt Q6DMN0); enzyme activity, inhibitor; relative to: human over Toxoplasma IC50).
For `CC(C)C[C@H](NC(=O)[C@H](CCC(=O)O)NC(=O)[C@H](C)NC(=O)[C@H](CCC(=O)O)NC(=O)[C@H](CCC(=O)O)NC(=O)[C@H](Cc1c[nH]cn1)NC(=O)[C@H](CCCNC(=N)N)NC(=O)[C@H](CCC(=O)O)NC(=O)[C@H](CC(N)=O)NC(=O)[C@H](CCCCN)NC(=O)[C@H](CC(C)C)NC(=O)[C@H](CCCNC(=N)N)NC(=O)[C@H](CCC(N)=O)NC(=O)[C@H](CC(C)C)NC(=O)[C@H](CCC(=O)O)NC(=O)[C@H](C)NC(=O)[C@H](C)NC(=O)[C@H](C)NC(=O)[C@@H](NC(=O)[C@H](CC(C)C)NC(=O)[C@H](CCCCN)NC(=O)[C@H](CCC(=O)O)NC(=O)[C@@H](NC(=O)[C@H](CO)NC(=O)CN)C(C)C)[C@@H](C)O)C(=O)N[C@@H](CCC(=O)O)C(=O)N[C@@H](CCCNC(=N)N)C(=O)N[C@@H](CC(C)C)C(=O)N[C@@H](CCCCN)C(=O)N[C@@H](CO)C(=O)N[C@@H](CCC(=O)O)C(=O)N[C@@H](Cc1ccc(O)cc1)C(=O)O`, the koff was 0.0561 s⁻¹ (Plasminogen (PLG, Homo sapiens, UniProt P00747, C188G/E240D/L256Y); binding, SPR; pH 7.4).
For `CC[C@H](C)[C@H](NC(=O)[C@H](Cc1c[nH]cn1)NC(=O)[C@H](CCCCNC(=O)[C@@H](NC(=O)[C@H](CCCCN)NC(=O)[C@H](Cc1ccccc1)NC(=O)[C@H](CCCCNC(=O)[C@H](CC(C)C)NC(=O)[C@@H]1CCCN1C(=O)[C@H](CCCCN)NC(=O)C[C@@H]1O[C@@H](C)[C@@H](O)[C@@H](O)[C@@H]1O)NC(=O)[C@H](CC(C)C)NC(=O)[C@@H]1CCCN1C(=O)[C@H](CCCCN)NC(=O)C[C@@H]1O[C@@H](C)[C@@H](O)[C@@H](O)[C@@H]1O)[C@@H](C)CC)NC(=O)[C@@H](NC(=O)[C@H](CCCCN)NC(=O)[C@H](Cc1ccccc1)NC(=O)[C@H](CCCCNC(=O)[C@H](CC(C)C)NC(=O)[C@@H]1CCCN1C(=O)[C@H](CCCCN)NC(=O)C[C@@H]1O[C@@H](C)[C@@H](O)[C@@H](O)[C@@H]1O)NC(=O)[C@H](CC(C)C)NC(=O)[C@@H]1CCCN1C(=O)[C@H](CCCCN)NC(=O)C[C@@H]1O[C@@H](C)[C@@H](O)[C@@H](O)[C@@H]1O)[C@@H](C)CC)C(N)=O`, “relative potency per fucoside” read 2.9 (Fucose-binding lectin PA-IIL (lecB, Pseudomonas aeruginosa, UniProt Q9HYN5); binding, isothermal titration calorimetry; divided by fucoside copies; relative to: monovalent fucoside KD over ligand KD).
`CCN(Cc1ccccc1)C(=O)CCc1nc(CN2CCN(C(=O)Cc3ccc(OC)c(OC)c3)CC2)no1` gave a current density of -74.6 ± 7.71 pA/pF (Sodium channel protein type 9 subunit alpha (SCN9A, Homo sapiens, UniProt Q15858); sodium current, inhibitor, whole-cell patch clamp; HEK293 stably expressing NaV1.7; 1 µM, at -10 mV).
`CC(=O)NCC(=O)N[C@@H](CO)C(=O)N[C@@H](CCCCNP(=O)(O)O)C(=O)NCC(=O)NCC(N)=O`: “first-order rate constant” 4.24e-05 s⁻¹ (Phospholysine phosphohistidine inorganic pyrophosphate phosphatase (LHPP, Homo sapiens, UniProt Q9H008); substrate; 100 µM, pH 7.8).
With `CC(=O)NC(Cc1ccc(Br)c(Cl)c1)C(=O)N[C@@H](C)C(=O)N1CCC[C@H]1C(=O)N1CCC[C@H]1C(=O)N[C@@H](CCC(=O)O)C(=O)N[C@@H](Cc1c[nH]cn1)C(=O)N[C@@H](CO)C(=O)N[C@H](C(=O)N[C@@H](C)C(N)=O)[C@@H](C)OP(=O)(O)O` (some centres unmarked) the inhibition was 0.03% (Tyrosine-protein kinase SYK (SYK, Homo sapiens, UniProt P43405); enzyme activity, inhibitor; 10 µM).
`CC[C@H](C)[C@H](NC(=O)[C@H](C)NC(=O)[C@H](CCCNC(=N)N)NC(=O)[C@@H](NC(=O)[C@H](CCCCN)NC(=O)[C@H](CC(N)=O)NC(=O)[C@H](CCCNC(=N)N)NC(=O)[C@@H](NC(=O)[C@@H](NC(=O)[C@H](CCC(=O)O)NC(=O)[C@H](CCCCN)NC(=O)[C@H](CCCNC(=N)N)NC(=O)[C@H](C)NC(=S)Nc1ccc2c(c1)C(=O)OC21c2ccc(O)cc2Oc2cc(O)ccc21)[C@@H](C)CC)[C@@H](C)CC)[C@@H](C)CC)C(=O)NCC(=O)N[C@@H](CCCCN)C(=O)N[C@@H](CCSC)C(=O)N[C@@H](C)C(=O)N[C@@H](CCCNC(=N)N)C(=O)N[C@H](C(=O)N[C@@H](Cc1ccccc1)C(=O)N[C@@H](CO)C(=O)N[C@H](C(=O)N[C@@H](CC(C)C)C(=O)N[C@@H](CCCNC(=N)N)C(=O)O)C(C)C)C(C)C` has a Kd ratio of ~100 fold (Calmodulin, N-terminal domain (CAM, Paramecium tetraurelia, UniProt P07463); binding, fluorescence anisotropy; Paramecium; relative to: Ca2+-saturated over apo).
For `CC(COC(=O)c1ccccc1)OC(=O)C(N)Cc1ccccc1` (mixture of isomers), the Km was 2370 µM (Serine hydrolase BPHL (BPHL, Homo sapiens, UniProt Q86WA6); enzyme activity, substrate).
The kinact/Ki of `CCCCCCCCNP(=O)(Oc1ccccc1)O[C@@H]1O[C@H](CO)[C@@H](O)[C@H](O)[C@H]1F` (some centres unmarked) is reported as 6930 M⁻¹ s⁻¹ (Lysosomal acid glucosylceramidase (GBA1, Homo sapiens, UniProt P04062); enzyme activity, irreversible inhibitor; pH 5.5, 37 °C, together with: 2,4-dinitrophenyl beta-D-glucopyranoside).
For `NC(=O)Cc1cc(=O)oc2cc(NC(=O)[C@@H](N)CCc3ccccc3)ccc12`, the Km was 100.8 ± 0.6 µM (Aminopeptidase N; enzyme activity, substrate; pH 7.5, 37 °C).
With `CC(C)OC(=O)c1ccc(OC(=O)C2CCN(C(=O)OCc3ccccc3)CC2)cc1` the inhibitory concentration was < 1 µM (ATP-dependent Clp protease proteolytic subunit (clpP, Staphylococcus aureus, UniProt Q2G036); enzyme activity, inhibitor).
`CCCC[C@H](N)C(=O)Nc1ccc2c(CC(N)=O)cc(=O)oc2c1` gave a Km of 52.8 ± 6 µM (Aminopeptidase N; enzyme activity, substrate; pH 7.5, 37 °C).
`CC(C)(C)n1ccc(C(=O)N2CCN(c3nc4ccccc4s3)CC2)c1` has a kmax of 0.0009 s⁻¹ (hh, C-terminal autoprocessing domain (Drosophila melanogaster, UniProt Q02936); inhibitor; 2.5 µM).

Some of these lines once more:
`O=C(O)/C=C/c1ccc(O)cc1` has an inhibition of 65.9 ± 1.4% (Acetylcholinesterase (ACHE, Homo sapiens, UniProt P22303); inhibitor; 250 µg/mL).
`C[C@@H](NC(=O)[C@H](Cc1ccccc1)NC(=O)[C@@H](CCCNC(=N)N)NC(=O)[C@H](CCCN)NC(=O)[C@@H]1CNC(=O)c2cc3cc(c2)C(=O)N[C@H](Cc2ccc4ccccc4c2)C(=O)N[C@@H](CO)C(=O)N[C@@H](CC(N)=O)C(=O)N[C@H](Cc2ccc4ccccc4c2)C(=O)N[C@@H](c2ccccc2)C(=O)N[C@@H](CCCCNC3=O)C(=O)N[C@H](Cc2ccccc2)C(=O)N[C@@H](CCC(N)=O)C(=O)N[C@H](CCCNC(=N)N)C(=O)N[C@@H](CCCNC(=N)N)C(=O)N1)C(=O)NCCOCCOCC(=O)NCCOCCOCC(=O)N[C@@H](CCCCNC(=O)c1ccc2c(c1)C(=O)OC21c2ccc(O)cc2Oc2cc(O)ccc21)C(N)=O` — result for binding: “no binding” (purine nucleoside phosphorylase; fluorescence polarization; concentration not given).
For `CC[C@H](C)[C@H](NC(=O)[C@H](Cc1c[nH]cn1)NC(=O)[C@H](CCCCNC(=O)[C@@H](NC(=O)[C@H](CCCCN)NC(=O)[C@H](Cc1ccccc1)NC(=O)[C@H](CCCCNC(=O)[C@H](CC(C)C)NC(=O)[C@@H]1CCCN1C(=O)[C@H](CCCCN)NC(=O)C[C@@H]1O[C@@H](C)[C@@H](O)[C@@H](O)[C@@H]1O)NC(=O)[C@H](CC(C)C)NC(=O)[C@@H]1CCCN1C(=O)[C@H](CCCCN)NC(=O)C[C@@H]1O[C@@H](C)[C@@H](O)[C@@H](O)[C@@H]1O)[C@@H](C)CC)NC(=O)[C@@H](NC(=O)[C@H](CCCCN)NC(=O)[C@H](Cc1ccccc1)NC(=O)[C@H](CCCCNC(=O)[C@H](CC(C)C)NC(=O)[C@@H]1CCCN1C(=O)[C@H](CCCCN)NC(=O)C[C@@H]1O[C@@H](C)[C@@H](O)[C@@H](O)[C@@H]1O)NC(=O)[C@H](CC(C)C)NC(=O)[C@@H]1CCCN1C(=O)[C@H](CCCCN)NC(=O)C[C@@H]1O[C@@H](C)[C@@H](O)[C@@H](O)[C@@H]1O)[C@@H](C)CC)C(N)=O`, “relative potency per fucoside” read 2.9 (Fucose-binding lectin PA-IIL (lecB, Pseudomonas aeruginosa, UniProt Q9HYN5); binding, isothermal titration calorimetry; divided by fucoside copies; relative to: monovalent fucoside KD over ligand KD).
